# Assay results from different studies.
# A part holds a random share of what one study measured. Positions count from the first letter of the parent shown.

# Study 1 — technique: competition protein-binding microarray; molecule type: double-stranded DNA, one strand shown; sample: in vitro; tested at: 2 µM; with: Cbf1 competitor, 0.05 µM; reading: higher = stronger binding; shared flanks, not repeated: … GTCTTGATTCGCTTGACGCTGCTG
# Target: Phosphate system positive regulatory protein PHO4, full length, GST-tagged (PHO4, Saccharomyces cerevisiae, UniProt P07270, residues 1-312)
# Setting: whole 60-bp probe, lowest competitor level
# Construct (chain): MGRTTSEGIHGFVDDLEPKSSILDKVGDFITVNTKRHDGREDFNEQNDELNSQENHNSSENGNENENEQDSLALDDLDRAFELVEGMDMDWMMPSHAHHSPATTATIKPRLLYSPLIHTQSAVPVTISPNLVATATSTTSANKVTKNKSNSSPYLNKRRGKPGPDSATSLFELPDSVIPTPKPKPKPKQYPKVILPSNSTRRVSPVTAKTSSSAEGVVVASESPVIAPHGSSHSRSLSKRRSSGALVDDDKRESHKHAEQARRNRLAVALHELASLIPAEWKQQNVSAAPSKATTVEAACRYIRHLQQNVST
Sequence,fluorescence intensity [a.u.]
CTTTCCCGATCTTGTCACGTGACTTTAGCACATTTG,14100
TGCGCAACAACTTGTCACCCCACTTTATGTCTAGAA,3480
GGCGGGAGGGAGCCGCATGTGCTCTATTACTTTCTT,11000
GTCTTGTCTCATTGAGGAGTGGGTGTCCCCACTTCA,5340
CTTCTGTAAATTTGCTTCGTGGGTGGACGCGCCCCG,6420
CTAACGAAGGTTTGTCTTGTGGGTGACAAGCCAAGT,4190
ATTTTTTTCTTGAAACACGTGAAGCCGAGGAGACCA,14900
CTTCTGTAAATTTGTCACTAAACTTGACGCGCCCCG,3480
CTTTCCCGATCTTGAATAGTGGGTGTAGCACATTTG,4110
AAATTACTAAGTTGTCACCTCACTTACCCCGTATGA,3180
ATTTGACAGCATTTTCACGTGCAAACTGGAAGGAAT,14500
TGTTCACCCTCCTCTCACGTGTATCTGACTCGTATT,14800
CTTCTGTAAATTTTTCACGTGTTTTGACGCGCCCCG,12600
AACGAGTCTGACGATGACGTGACTCGCTCCACTAAG,3910
CTTTCCCGATCTTGTCACATTACTTTAGCACATTTG,4620
AGACTTACCAGAATCGACATGACAGATAACGACAAG,3800
CTAACGAAGGTTTGTCACTTCACTTACAAGCCAAGT,3040
AGTTCCGCTGTGCTGCATGTGTGTGTATGCCAATAT,9150
CATACCCAACCTTGTCACAGAACTTAAGATATTTGT,3520
CGGGGTTAAGTTTGCGACGTGGGTGGCTTGCAGCAG,6400

# Study 2 — target: CCNB3, cyclin fold, Cln2 fusion (human); technique: yeast growth competition, sequencing; sample: yeast; setting: strong parent motif; baseline: not given; reading: higher = stronger binding
# Starting sequence: SCAPER docking peptide (human); SNARRSLNFGGST
Variant,normalised enrichment score
SNARRSLCFGGST [N8C],0.376
SNARRSLNFGGFT [S12F],1.25
SNARRSLNFKGST [G10K],0.738
SNARRSLNFGGSD [T13D],2.15
SNARRSLNFEGST [G10E],1.52
SNARRRLNFGGST [S6R],1.93
SNKRRSLNFGGST [A3K],-0.01
SNARASANFGGST [R5A L7A],-0.0759
SNARRSLNFGRST [G11R],0.506
SNARTSLNFGGST [R5T],0.3
SNARRSLVFGGST [N8V],1.12
QNARRSLNFGGST [S1Q],1.4
SNARRMLNFGGST [S6M],1.08
SNARRSSNFGGST [L7S],0.521
SNARRSCNFGGST [L7C],0.406

# Study 3 — technique: aptamer microarray, sandwich; molecule type: DNA with 2'F-ANA; sample: in vitro; tested at: 200 nM; with: Cy3 exosite-II aptamer, 400 nM; reading: higher = stronger binding; sequence: GGTTGGTGTGGTTGG
# Target: Prothrombin, mature alpha-thrombin (F2, Homo sapiens, UniProt P00734)
# Setting: whole 15-mer aptamer, many near background
Modification,mean fluorescence intensity
2'F-ANA at 1 6 7 11 12 13 15,231 a.u.
2'F-ANA at 1 4 5 8 9 10 11 13 15,60.2 a.u.
2'F-ANA at 2 8 10 11 12 14 15,98.6 a.u.
2'F-ANA at 2 3 4 5 6 8 9 10 11 12 13 15,57.1 a.u.
2'F-ANA at 1 3 4 5 6 7 9 10 12,50.6 a.u.
2'F-ANA at 4 6 7 9 10 11 12 13 14,82.9 a.u.
2'F-ANA at 1 4 6 10 11 12 13 14 15,88.7 a.u.
2'F-ANA at 2 3 6 9 10 12 13 14 15,234 a.u.
2'F-ANA at 1 2 6 8 9 10 14 15,50.1 a.u.
2'F-ANA at 1 2 3 4 7 11 12 13 15,376 a.u.
2'F-ANA at 1 2 3 4 7 8 9 10 12 13 15,68 a.u.
2'F-ANA at 1 3 5 6 10 12,47 a.u.
2'F-ANA at 4 5 6 7 8 9 10 11,49.7 a.u.
2'F-ANA at 2 4 6 8 9 13 14,127 a.u.
2'F-ANA at 2 3 4 5 6 10 11 13,58.8 a.u.
2'F-ANA at 6 7 8 9 10 11 12 13 15,142 a.u.
2'F-ANA at 7 10 11 12 14 15,107 a.u.
2'F-ANA at 2 5 6 7 8 10 11 12 13 14 15,66.2 a.u.
2'F-ANA at 1 4 5 7 9 11 12,118 a.u.
2'F-ANA at 1 5 6 7 10 12 14,48.8 a.u.
2'F-ANA at 1 2 4 7 9 13 14 15,45.9 a.u.
2'F-ANA at 3 4 5 6 7 10 13 15,47.6 a.u.
2'F-ANA at 2 3 4 9 10 15,261 a.u.
2'F-ANA at 2 4 5 8 9 11 12 13 14,43.2 a.u.
2'F-ANA at 1 3 4 8 9 10 12 13,67.5 a.u.

# Study 4 — technique: RNA Bind-n-Seq; molecule type: RNA; sample: in vitro; tested at: 365 nM; baseline: no-protein control; reading: higher = stronger binding
# Target: RNA binding protein fox-1 homolog 2, RRM domain, GST-SBP tag (RBFOX2, Homo sapiens, UniProt O43251-10, residues 100-194)
# Setting: natural RNA segment, single round, ends assumed
# Shared flanks, not repeated: GGGAGUUCUACAGUCCGACGAUC … UGGAAUUCUCGGGUGCCAA
# Construct (chain): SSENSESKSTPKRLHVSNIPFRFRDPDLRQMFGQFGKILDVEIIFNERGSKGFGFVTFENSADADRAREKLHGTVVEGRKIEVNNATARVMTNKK
Sequence,RBNS enrichment (R)
GACUAGUGUGGUAACUAGGGAACAGAUGGCACUGCAGAGUGCUUCCCGCUCAUAUGAGAGAGCAGGUGUCUGCCCUUGAGAGCUGGUGAGCCGCGUCAUCUGUUUGCGCU,0.346
UCUGAAACUUGCACUGCCCAUCCAUGCAAAAAUAAGUAUCUUAAAUAAAAGCAGAGAGCAAAAACUGGGGAGCCAUGUACUAUGUCACCACAUCUGUUAACUGUUUCCUG,0.272
AAGGUAUGUAUCCUGCAGUAGUUAAGCCCUUAAAUAAUUGGGAGUUGGGAAAUCGGAAUCAAAGUAUUGGUGCCAGCUCACUGAAGAUCUGAUUGGGUCAACAGUUGAUU,2.41
GUAAAGCUAUUGCACUGCGUUGCCCUGGACAAGUCUGAAAUUGGUAUAAAAGACAAGGUGCCCAAGGUCACAAGAACACCUCAUUGCCGACUGAAGCCAGUGUCAGGGCA,0.448
GGCCAUCUUACGAUACGGCUUGGACUCUGAUCUCAACUGCAAGAUUGCCCAGCUGCCCUUGACAGGAAGUAUGAGCAUCAUCUUCUUCCUGCCCCUGACCGUGACCCAGA,0.985
GGAACAUGUUGGUGGAAGCUUGUACAAUAGAACACAUUGGUGGGAGCUUGUACAUACUUUUUUAUGGAGCAUUACUUACGAUUUUUUAAGUAAAAUGUUUUGAAACCAAA,0.392
UAGGCUAAUAAUAAUAAUAAAAAACCAAAAGGCAUCUUGUUGUGAUUUCUAUGCCAACAUCCUGCCUACCUACAUAUCCCUAUCUUGGCUUAACCCGUUUCUCUGGAUUU,0.251
UUGGAGUGUAACCGGGGAGGGAAAUUAUAGCAUGCUUGCAGACAGACCUGCUCUAGCGAGAGCUGAGCAUGUGUCCUCCACUAGAUGAGGCUGAGUCCAGCUGUUCUUUA,1.57
AUUUUAGUCUUCAUAGCUAUUGGCUAAGAGAGAUAAUGAGCUGAUGGUCUAUUUUAACCUUGAAAGUAAAAAUGUAUAUUUUUUCACUACAAGUACAUUGAACAGUAAAA,0.307
CUUGUUUCUAGUGUGUAUAUAUGUCGCCCCCGUGAUGCAUAUAUACACAGGUAUUAAAUAUAUCGCUCUAUAUAAUAUUAUAUAUGUGUGUGGUAUCCAAGGAAUCACUU,0.448
UCUUUGCCUCAUAUUAAAAACUCAUCCCAUGGCCGCUAGGCCACCGUGCUCCAAGGGAGCUCUCAGCAGCUCUGCCUAGUGUUUCGUGCUGAACUCAUCGGGGCUUUGCG,0.406
GUGAAGAAACACCUCGUAGUUCACGCCACCAAAGCAGUUCUUGUCACACCUUUCCUGCCUGCGCAAACCUAGCUGUACCUAGCUGUACACGUCCUUUAUUAGAGAUGACC,0.392

# Study 5 — technique: DHFR PCA, deep sequencing; sample: yeast; with: (+)-ABA 17 µM; baseline: wild-type fitted maximum; reading: higher = stronger binding
# Target: ABI1, truncated, D143A, DHFR fusion (Arabidopsis thaliana)
# Setting: methotrexate growth selection, single substitutions
# Starting sequence: PYL1, truncated, DHFR fusion (Arabidopsis thaliana); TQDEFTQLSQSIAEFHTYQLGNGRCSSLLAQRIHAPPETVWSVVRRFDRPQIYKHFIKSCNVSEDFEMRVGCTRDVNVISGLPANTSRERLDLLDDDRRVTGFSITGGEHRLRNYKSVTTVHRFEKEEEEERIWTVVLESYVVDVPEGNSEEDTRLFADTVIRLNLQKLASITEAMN
Variant,relative binding score [%]
A84Y,61.9
V62Q,7.01
S80G,13.9
L164R,78.9
R90G,-5.01
I12N,4.73
A35S,67.4
G148S,54
L29N,66.8
W134M,99.5
F124N,50.5
V44H,-14.7
H16E,-0.821
D159W,-4.29
E109T,80
D3K,73.2
R113S,88.7
V40M,0.0294
D153H,28.3
